Experimental data of several laboratories.
Lines come from different studies, so protocols differ. Several values in a cell are separate wells, animals, samples, runs or records. ± marks the error that the study gave.

Substance | target or system | test | test system | setting | how to read | endpoint | result
COCCOCCOCCOc1ccc(C2=N[C@@](C)(C(=O)O)CS2)c(O)c1 | – | – | rat, bile duct-cannulated, bile and urine | subcutaneous, 300 µmol/kg single dose, 24 h, together with: uranium 1 mg/kg s.c. | – | uranium excretion | 515 ± 107 µg/kg
LPYAK | – | DSC | peptide, 7/3 SOPC/cholesterol bilayers | 15 mol%, pH 7.40, SOPC chain melting transition | – | transition enthalpy | 1.1 kcal/mol
AGDSGFAAY | – | AIM | peptide, CD8+ T cells from PBMC, human donors | HLA-A*01:01 restricted, unit not given | relative to: positive over tested donors | frequency of responding donors | 25
COc1ccc(C2=N[C@@H](C(=O)O)CS2)c(O)c1 | – | – | rat, bile duct-cannulated, bile and urine | subcutaneous, 300 µmol/kg single dose, 24 h, together with: uranium 1 mg/kg s.c. | – | uranium excretion | 327 ± 38 µg/kg
Cn1cnc(Cn2c(=O)[nH]/c(=N\c3cc4cn(C)nc4cc3Cl)n(Cc3cc(F)c(F)cc3F)c2=O)n1 | – | – | human, all renal function groups | oral, 375 mg, vessel puncture site haemorrhage TEAE, Moderate severity | – | patients with adverse event | 0%
COc1ccc(C2=N[C@@](C)(C(=O)O)CS2)c(O)c1 | – | – | bile duct-cannulated rats, bile and urine | subcutaneous, 150 µmol/kg, 24 h, together with: uranium 1 mg/kg s.c. | – | uranium excretion | 248 ± 43 µg/kg
CCc1ccc(Sc2cc(C(=O)NCCCN3CCCC(C)C3)c3ccccc3n2)cc1 (stereo not shown) | SARS-CoV-2 | cytopathic effect | USA_WA1/2020 | first round 5-point | – | AC50 | 11200 nM
FVNEFYAYLR | – | AIM | peptide, CD8+ T cells from PBMC, human donors | – | relative to: positive over tested donors | frequency of responding donors | 100%
CC[C@H](C)[C@H](NC(=O)[C@H](Cc1ccc(O)cc1)NC(=O)[C@H](Cc1c[nH]c2ccccc12)NC(=O)[C@H](CC(C)C)NC(C)=O)C(=O)N[C@@H](CCCCN)C(N)=O | – | DSC | SOPC/cholesterol 6/4 bilayers | 10 mol%, pH 7.40 | – | transition enthalpy | 0.3 kcal/mol
O=c1ccc(=O)[nH][nH]1 | – | agonist | medaka larvae | dose not given | – | toxicity | toxic
CC[C@H](C)[C@H](NC(=O)[C@H](CC(C)C)NC(=O)[C@H](Cc1c[nH]c2ccccc12)NC(=O)[C@H](CCC(N)=O)NC(=O)[C@@H](NC(=O)[C@H](Cc1ccccc1)NC(=O)[C@H](C)NC(=O)[C@H](CCCCNC(=O)COCCOCCNC(=O)COCCOCCNC(=O)CC[C@H](NC(=O)CCCCCCCCCCCCCCCCCCC(=O)O)C(=O)O)NC(=O)[C@H](CCC(N)=O)NC(=O)[C@H](C)NC(=O)[C@@H](NC(=O)[C@H](CCCCN)NC(=O)[C@H](CC(=O)O)NC(=O)[C@H](CC(C)C)NC(=O)C(C)(C)NC(=O)[C@@H](NC(=O)[C@H](CO)NC(=O)[C@H](Cc1ccc(O)cc1)NC(=O)[C@H](CC(=O)O)NC(=O)[C@H](CO)NC(=O)[C@@H](NC(=O)[C@H](Cc1ccccc1)NC(=O)[C@@H](NC(=O)CNC(=O)[C@H](CCC(=O)O)NC(=O)C(C)(C)NC(=O)[C@@H](N)Cc1ccc(O)cc1)[C@@H](C)O)[C@@H](C)O)[C@@H](C)CC)[C@@H](C)CC)C(C)C)C(=O)N[C@@H](C)C(=O)NCC(=O)NCC(=O)N1CCC[C@H]1C(=O)N[C@@H](CO)C(=O)N[C@@H](CO)C(=O)NCC(=O)N[C@@H](C)C(=O)N1CCC[C@H]1C(=O)N1CCC[C@H]1C(=O)N1CCC[C@H]1C(=O)N[C@@H](CO)C(N)=O | – | item: treatment-emergent decreased appetite | healthy subjects | 4.5 mg, multiple ascending dose | – | subjects with adverse event | 83.3%
NPIQLSSYSL | – | AIM | peptide, CD8+ T cells from PBMC, human donors | HLA-B*07:02 restricted, unit not given | relative to: positive over tested donors | frequency of responding donors | 50
Nc1ncnc2c([C@@H]3N[C@H](CO)[C@@H](O)[C@H]3O)c[nH]c12 | Marburg virus | viral RNA in cell lysate | HeLa, Musoke | 3.1 µM, 1 h | – | inhibition | 57.1%
insulin human | – | item: CNR1 mRNA | EcoHIV-infected mouse, brain | i.p., dose not given | relative to: PBS | fold change | 0.892
CNC(=O)[C@@H](NC(=O)[C@H](CC(C)C)[C@H](O)C(=O)NO)C(C)(C)C | snake venom metalloproteinase | proteolytic activity, inhibitor | Daboia russelii, venom KA | together with: azocasein | – | IC50 | 1930 nM and 1750 nM and 2260 nM
YTNSFTRGVY | – | AIM | peptide, CD8+ T cells from PBMC, human donors | HLA-A*01:01 restricted, unit not given | relative to: positive over tested donors | frequency of responding donors | 33
COCCOCCOCCOc1cccc(C2=N[C@@](C)(C(=O)O)CS2)c1O | – | – | rat, bile duct-cannulated, bile and urine | subcutaneous, 150 µmol/kg single dose, 24 h, together with: uranium 1 mg/kg s.c. | – | uranium excretion | 316 ± 58 µg/kg
C/C=C1\NC(=O)C(C(C)O)NC(=O)C(CCCN)NC(=O)C(CCO)NC(=O)CNC(=O)C(CCN)NC(=O)C(NC(=O)CC(O)CCCCCCCCCCC)COC(=O)C(C(O)CCl)NC(=O)C(C(O)C(=O)O)NC1=O (stereo not shown) | – | calcein leakage | DOPC/CHOL liposomes | concentration not given, together with: 20 wt% PEG-8000 | – | maximum fusion | 71 ± 7%
RTRSMWSF | – | AIM | peptide, CD8+ T cells from PBMC, human donors | dose not given | – | response magnitude per positive donor | 109
CCN(CC)Cc1ccc(Nc2ccnc3cc(Cl)ccc23)cc1O | SARS-CoV-2 | cytopathic effect | USA_WA1/2020 | round 2, 5-point | – | maximum response | 92.2%
LPYGK | – | DSC | peptide, 7/3 SOPC/cholesterol bilayers | 10 mol%, pH 7.40, SOPC chain melting transition | – | transition enthalpy | 1.5 kcal/mol
CS/C(S)=N/CCCC[S+](C)[O-] (racemic) | – | RT-PCR | rat, mammary gland | oral gavage, 200 mg/kg, four days | relative to: vehicle | mRNA level | 0.059 fold change
